# Results of several laboratories.
# Each line is one published result; not all experiments were run side by side. Numbers after ± are the reported error.
Structure (SMILES),cell line,assay,system,conditions,scale,endpoint,value
CC(C)(C)c1ccc(S(=O)(=O)N2CC2C(N)=O)cc1 (centres unmarked),Balb/c 3T3 fibroblasts,"cytotoxicity, neutral red uptake",DMEM with 5% FBS,24 h,,IC50,20 ± 2 µM
CC(C)(O)c1cc2c(ccc3c(=O)cc(-c4ccccc4)oc32)o1,differentiated SH-SY5Y,MTT,,0.1 µM,relative to: control,viability,100 ± 2.5%
CC[C@H](C)[C@H](NC(=O)[C@@H](CCCCN)NC(=O)[C@H](CCCCN)NC(=O)[C@H](Cc1ccccc1)NC(=O)[C@H](CC(C)C)NC(=O)[C@@H](CCCCN)NC(=O)[C@H](Cc1c[nH]c2ccccc12)NC(=O)[C@H](CCCCN)NC(C)=O)C(=O)NCC(=O)N[C@@H](C)C(=O)N[C@H](C(=O)N[C@@H](CC(C)C)C(=O)N[C@H](CCCCN)C(=O)N[C@H](C(=O)N[C@@H](CC(C)C)C(N)=O)C(C)C)C(C)C,RAW264.7,"cell viability, MTT",,"1 h, 37 °C",,LD50,98 µM
C(#Cc1cncc(OC[C@@H]2CCN2)c1)c1ccccc1,Caco-2,Caco-2 permeability,,"100 µM, 2 h, pH 7.4, added: verapamil 100 µM",,Papp A to B,20.2 ± 0.02 ×10⁻⁶ cm/s
CCCCn1cc(C(=O)O)c(=O)c2cc(F)c3c(nnn3-c3ccccc3Cl)c21,T47D,"cell growth or viability, SRB",,,,IC50,173 µM
CC1(C)C=Cc2c(cc(O)c3c(=O)cc(-c4ccccc4)oc23)O1,differentiated SH-SY5Y,MTT,,"1 µM, 24 h, retinoic acid differentiated",relative to: control,viability,103 ± 1.8%
CCCCn1cc(C(=O)O)c(=O)c2cc(F)c(Nc3ccccc3Cl)c(N)c21,K562,"cell growth, SRB",,72 h,,IC50,33.1 ± 5.6 µg/mL
NCCCC[C@H](NC(=O)[C@H](CCCCNC(=O)CCC(=O)Nc1nnc(S(N)(=O)=O)s1)NC(=O)[C@H](Cc1ccccc1)NC(=O)[C@H](Cc1ccccc1)NC(=O)CCCc1ccc2ccc3cccc4ccc1c2c34)C(N)=O,NIH/3T3,MTT,,"concentration not given, 24 h, normoxia",,cytotoxicity,not toxic
COc1cc(C=CC(=O)CC(=O)C=Cc2ccc(OC(=O)CCC(=O)OC3OC4OC5(C)CCC6C(C)CCC(C3C)C46OO5)c(OC)c2)ccc1OC(=O)CCC(=O)OC1OC2OC3(C)CCC4C(C)CCC(C1C)C24OO3 (centres unmarked),C3PV normal primary fibroblasts,MTT,,concentration not given,,cytotoxicity,not toxic
Cc1cc(Nc2nc(C[C@@]3(C(=O)O)CCN(Cc4cccc(Cl)c4F)[C@H](C)C3)cc(C)c2F)n[nH]1,human bone marrow CFU-GM,colony formation,,13 to 15 days,,IC90,0.618 µM
CC[C@H](C)[C@H](NC(=O)[C@H](CCCCN)NC(=O)[C@H](CC(C)C)NC(=O)[C@H](C)NC(=O)[C@H](CC(C)C)NC(=O)[C@H](CO)NC(=O)[C@H](C)NC(=O)[C@H](CC(C)C)NC(=O)[C@H](Cc1ccccc1)NC(=O)[C@@H]1CCCN1C(=O)[C@H](CC(C)C)NC(=O)[C@H](Cc1ccccc1)NC(=O)[C@H](CCCCN)NC(=O)[C@H](CCCCN)NC(=O)[C@H](CCCCN)NC(=O)[C@H](CCCCN)NC(=O)[C@H](CCCCN)NC(=O)[C@@H](N)CCCCN)C(=O)N[C@@H](CC(C)C)C(N)=O,horse erythrocytes,,,"MIC against Staphylococcus aureus, 2 h, 37 °C",relative to: Triton X-100,haemolysis,17.8%
CC[C@H](C)[C@H](N)C(=O)Oc1c(OC)ccc2c1[C@@]13CCN(C)[C@@H](C2)[C@H]1C=C(OC)C(=O)C3,RAW264.7,"cytotoxicity, MTT",,24 h,,IC50,> 100 µM
CCc1nc2cc3ccccc3cc2cc1C(=O)N1CCC[C@H]1C(=O)N[C@@H](C/C=C/C[C@H](NC(=O)[C@@H]1CCCN1C(=O)c1cc2cc3ccccc3cc2nc1CC)C(=O)N[C@@H](CCCCN)C(=O)NCCCN)C(=O)N[C@@H](CCCCN)C(=O)NCCCN,C2C12 mouse myoblasts,MTT,,"up to 100 µM, 48 h",,cytotoxicity,not toxic
COc1c(C(=O)/C=C(\O)c2ccccc2)ccc2c1C=CC(C)(C)O2,differentiated SH-SY5Y,MTT,,1 µM,relative to: control,viability,100 ± 2.5%
Nc1ncnc2c1c(F)cn2[C@@H]1O[C@H](CO)[C@@H](O)[C@H]1O,MRC-5 SV2,"cytotoxicity, resazurin",medium with 5% FBS,72 h,,EC50,0.16 ± 0.03 µM
COC(=O)C1CN1S(=O)(=O)c1ccc2ccccc2c1 (centres unmarked),Balb/c 3T3 fibroblasts,"cytotoxicity, neutral red uptake",DMEM with 5% FBS,24 h,,IC50,610 ± 69 µM
N=C(N)NCCC[C@@H]1NC(=O)[C@H](Cc2csc3ccccc23)NC(=O)[C@@H](Cc2ccccc2)NC(=O)[C@H](Cc2ccccc2)NC(=O)[C@H](CCC(=O)NCCOCCOCC(=O)N[C@@H](CCCCNC(=O)c2ccc3c(c2)C(=O)OC32c3ccc4cc(O)ccc4c3Oc3c2ccc2cc(O)ccc32)C(N)=O)NC(=O)[C@@H](CCCNC(=N)N)NC(=O)[C@H](CCCNC(=N)N)NC(=O)[C@@H](CCCNC(=N)N)NC1=O,HeLa,,,"5.0 µM, 1% FBS",relative to: CPP12,endosomal escape efficiency,108 ± 9%
COc1cc2c(c3oc(-c4ccccc4)cc(=O)c13)C=CC(C)(C)O2,differentiated SH-SY5Y,MTT,,100 µM,relative to: control,viability,98.8 ± 3.7%
CCO[C@H]1[C@H](O)[C@@H](N)[C@@H](O[C@H]2[C@H](O[C@@H]3O[C@H](CO)[C@@H](O[C@H]4O[C@@H](CN)[C@@H](O)[C@H](O)[C@H]4N)[C@H]3O)[C@@H](O)[C@H](N)C[C@@H]2N)O[C@@H]1CO,NIH 3T3,alamarBlue,,concentration not given,,cytotoxicity,not toxic
CN(CC(=O)N(Cc1ccc(C2CCCCC2)cc1)c1ccc(C(=O)O)cc1)S(=O)(=O)c1c(F)c(F)c(F)c(F)c1F,CD-1 mouse hepatocytes,,,,,half-life,≤ 0.167 h
CCCCn1cc(C(=O)O)c(=O)c2cc(F)c(Nc3cccc(Cl)c3)c([N+](=O)[O-])c21,K562,"cell growth, SRB",,72 h,,IC50,152 ± 27.7 µg/mL
O=C(CN1CCCC2=CC3CC(CN4CCCCC34)C21)Nc1ccc(Br)cc1 (centres unmarked),Huh-7,cytotoxicity,,,,CC50,> 267 µM
CC[C@H](C)[C@H](NC(=O)[C@H](Cc1c[nH]c2ccccc12)NC(=O)[C@H](CCCNC(=O)c1ccc2c(c1)C1(OC2=O)c2ccc(O)cc2Oc2cc(O)ccc21)NC(=O)CNC(=O)[C@H]1CCCN1C(=O)[C@@H](NC(=O)[C@H](CCCNC(=N)N)NC(=O)[C@@H](NC(=O)[C@H](Cc1c[nH]c2ccccc12)NC(=O)[C@H](CCCN)NC(C)=O)C(C)C)C(C)C)C(=O)N[C@@H](CCCNC(=N)N)C(=O)N[C@@H](CCC(N)=O)C(N)=O,OPM-2,"peptidase degradation, capillary electrophoresis",cell lysate,"10 µM, pH 7.6, 37 °C",,half-life,10.5 h
CC(C)C[C@@H](N)C(=O)NCC(=O)N[C@H](C)C(=O)N[C@H](CO)C(=O)N[C@H](Cc1c[nH]c2ccccc12)C(=O)N[C@H](Cc1c[nH]cn1)C(=O)N[C@H](CCCNC(=N)N)C(=O)N1CCC[C@@H]1C(=O)N[C@H](CC(=O)O)C(=O)N[C@H](CCCCN)C(=O)NCCCC[C@@H](NC(=O)[C@H]1CCCN1C(=O)[C@@H](CC(C)C)NC(=O)[C@H]1CCCN1C(=O)[C@@H](CCCNC(=N)N)NC(=O)[C@@H](CCCCN)NC(=O)[C@@H](CCC(N)=O)NC(=O)[C@@H](Cc1ccc(O)cc1)NC(=O)CNC(=O)[C@@H](CC(C)C)NC(=O)[C@@H](CS)NC(=O)[C@@H](CS)NC(=O)[C@@H](CCCCN)NC(=O)[C@@H](CC(=O)O)NC(=O)[C@H]1CCCN1C(=O)[C@@H](CCCNC(=N)N)NC(=O)[C@@H](Cc1c[nH]cn1)NC(=O)[C@@H](Cc1c[nH]c2ccccc12)NC(=O)[C@@H](CO)NC(=O)[C@@H](C)NC(=O)CNC(=O)[C@H](N)CC(C)C)C(N)=O,CEM,LIVE/DEAD calcein-ethidium,,"up to 100 µM, 7 days",,cytotoxicity,not toxic
CC[C@H](C)[C@H](NC(=O)CNC(=O)[C@H](CCCNC(=N)N)NC(=O)[C@H](CCCCN)NC(=O)CNC(=O)[C@H](CC(N)=O)NC(=O)CNC(=O)CNC(=O)CNC(=O)[C@H](CC(C)C)NC(=O)[C@H](C)NC(=O)CNC(=O)[C@H](Cc1c[nH]c2ccccc12)NC(=O)[C@H](Cc1ccc(O)cc1)NC(=O)CNC(=O)[C@H](CCCNC(=N)N)NC(=O)[C@H](CCSC)NC(=O)CNC(=O)[C@H](CCCCN)NC(=O)[C@H](CC(N)=O)NC(=O)[C@H](Cc1ccccc1)NC(=O)[C@H](CCCCN)NC(=O)[C@@H](N)CC(N)=O)C(=O)N[C@@H](CCSC)C(=O)NCC(=O)N[C@@H](Cc1ccc(O)cc1)C(=O)N[C@@H](CC(=O)O)C(=O)O,SK-BR-3,MTT,,"1 nM to 10 µM, 24 h",,cytotoxicity,not toxic
COC1(c2ccccc2)CC(=O)c2c(cc3c(c2O)C=CC(C)(C)O3)O1 (centres unmarked),differentiated SH-SY5Y,MTT,,0.1 µM,relative to: control,viability,99.2 ± 3.6%
CN(C)C(=O)C1CN1S(=O)(=O)c1ccc(F)cc1F (centres unmarked),Balb/c 3T3 fibroblasts,"cytotoxicity, neutral red uptake",DMEM with 5% FBS,24 h,,IC50,15 ± 1 µM
CCCCn1cc(C(=O)O)c(=O)c2cc(F)c(Nc3cccc(Cl)c3)c(N)c21,PANC-1,"cell growth or viability, SRB",,,,IC50,5.7 µM
COc1ccc2c(=O)c(OC)c(-c3ccc(OC)c(OC)c3)oc2c1,differentiated SH-SY5Y,MTT,,10 µM,relative to: control,viability,99.6 ± 3.3%
Cc1ncsc1-c1ccc(CNC(=O)[C@@H]2C[C@@H](O)CN2C(=O)[C@@H](NC(=O)CCCCCCCCCC(=O)NCCN2CCN(Cc3cccc(-c4ccc(N5CCN(C)CC5)c(NC(=O)c5c[nH]c(=O)cc5C(F)(F)F)c4)c3)CC2)C(C)(C)C)cc1,Sf9,LC-MS,,"10 µM, 24 h",relative to: total recovery,cellular fraction of compound,29%
COc1cc2c(cc1OC)C(=O)C(=Cc1ccc(N3CC[N+](C)(C)CC3)cc1)C2,B16,"cell viability, MTT",,48 h,,LD50,3.17 µM
COc1c(C(=O)/C=C/c2ccccc2)ccc2occc12,differentiated SH-SY5Y,MTT,,0.1 µM,relative to: control,viability,102 ± 4.2%
CC(=O)N[C@@H](CO)C(=O)N[C@@H](CC(=O)O)C(=O)N[C@@H](CCCCNC(=O)CCCC[C@@H]1SC[C@@H]2NC(=O)N[C@@H]21)C(=O)N1CCC[C@H]1C(=O)O,A549,flow cytometry,,"1 mg/mL, 2 h, serum-free, added: nystatin 5 mg/mL",relative to: untreated,cellular uptake,26 ± 2.7%
CC1(C)C=Cc2c(cc3oc(-c4ccccc4)cc(=O)c3c2O)O1,differentiated SH-SY5Y,MTT,,1 µM,relative to: control,viability,100 ± 4.1%
CCCCn1cc(C(=O)O)c(=O)c2cc(F)c3c(nnn3-c3cccc(Cl)c3)c21,PANC-1,"cell growth, SRB",,72 h,,IC50,23.1 ± 3.55 µg/mL
COC(=O)C1CN1S(=O)(=O)c1ccc(OC)cc1 (centres unmarked),Balb/c 3T3 fibroblasts,"cytotoxicity, neutral red uptake",DMEM with 5% FBS,24 h,,IC50,1250 ± 191 µM
CC(=O)N(O)CCCP(=O)(O)O,L5178Y TK+/- mouse lymphoma,,,"2200 µg/mL, 4 h, without S9",relative to: vehicle,relative cell count,100%
CCCCn1cc(C(=O)O)c(=O)c2cc(F)c(Nc3ccccc3Cl)c([N+](=O)[O-])c21,K562,"cell growth or viability, SRB",,,,IC50,225 µM

# For quick reference, copied from above:
Structure (SMILES),cell line,assay,system,conditions,scale,endpoint,value
CCCCn1cc(C(=O)O)c(=O)c2cc(F)c3c(nnn3-c3ccccc3Cl)c21,T47D,"cell growth or viability, SRB",,,,IC50,173 µM
CCCCn1cc(C(=O)O)c(=O)c2cc(F)c(Nc3ccccc3Cl)c([N+](=O)[O-])c21,K562,"cell growth or viability, SRB",,,,IC50,225 µM
